Experimental data of several laboratories.
A part holds a random share of what one study measured. Positions count from the first letter of the parent shown.
Chain of UniProt Q15746 (whole entry, looked up): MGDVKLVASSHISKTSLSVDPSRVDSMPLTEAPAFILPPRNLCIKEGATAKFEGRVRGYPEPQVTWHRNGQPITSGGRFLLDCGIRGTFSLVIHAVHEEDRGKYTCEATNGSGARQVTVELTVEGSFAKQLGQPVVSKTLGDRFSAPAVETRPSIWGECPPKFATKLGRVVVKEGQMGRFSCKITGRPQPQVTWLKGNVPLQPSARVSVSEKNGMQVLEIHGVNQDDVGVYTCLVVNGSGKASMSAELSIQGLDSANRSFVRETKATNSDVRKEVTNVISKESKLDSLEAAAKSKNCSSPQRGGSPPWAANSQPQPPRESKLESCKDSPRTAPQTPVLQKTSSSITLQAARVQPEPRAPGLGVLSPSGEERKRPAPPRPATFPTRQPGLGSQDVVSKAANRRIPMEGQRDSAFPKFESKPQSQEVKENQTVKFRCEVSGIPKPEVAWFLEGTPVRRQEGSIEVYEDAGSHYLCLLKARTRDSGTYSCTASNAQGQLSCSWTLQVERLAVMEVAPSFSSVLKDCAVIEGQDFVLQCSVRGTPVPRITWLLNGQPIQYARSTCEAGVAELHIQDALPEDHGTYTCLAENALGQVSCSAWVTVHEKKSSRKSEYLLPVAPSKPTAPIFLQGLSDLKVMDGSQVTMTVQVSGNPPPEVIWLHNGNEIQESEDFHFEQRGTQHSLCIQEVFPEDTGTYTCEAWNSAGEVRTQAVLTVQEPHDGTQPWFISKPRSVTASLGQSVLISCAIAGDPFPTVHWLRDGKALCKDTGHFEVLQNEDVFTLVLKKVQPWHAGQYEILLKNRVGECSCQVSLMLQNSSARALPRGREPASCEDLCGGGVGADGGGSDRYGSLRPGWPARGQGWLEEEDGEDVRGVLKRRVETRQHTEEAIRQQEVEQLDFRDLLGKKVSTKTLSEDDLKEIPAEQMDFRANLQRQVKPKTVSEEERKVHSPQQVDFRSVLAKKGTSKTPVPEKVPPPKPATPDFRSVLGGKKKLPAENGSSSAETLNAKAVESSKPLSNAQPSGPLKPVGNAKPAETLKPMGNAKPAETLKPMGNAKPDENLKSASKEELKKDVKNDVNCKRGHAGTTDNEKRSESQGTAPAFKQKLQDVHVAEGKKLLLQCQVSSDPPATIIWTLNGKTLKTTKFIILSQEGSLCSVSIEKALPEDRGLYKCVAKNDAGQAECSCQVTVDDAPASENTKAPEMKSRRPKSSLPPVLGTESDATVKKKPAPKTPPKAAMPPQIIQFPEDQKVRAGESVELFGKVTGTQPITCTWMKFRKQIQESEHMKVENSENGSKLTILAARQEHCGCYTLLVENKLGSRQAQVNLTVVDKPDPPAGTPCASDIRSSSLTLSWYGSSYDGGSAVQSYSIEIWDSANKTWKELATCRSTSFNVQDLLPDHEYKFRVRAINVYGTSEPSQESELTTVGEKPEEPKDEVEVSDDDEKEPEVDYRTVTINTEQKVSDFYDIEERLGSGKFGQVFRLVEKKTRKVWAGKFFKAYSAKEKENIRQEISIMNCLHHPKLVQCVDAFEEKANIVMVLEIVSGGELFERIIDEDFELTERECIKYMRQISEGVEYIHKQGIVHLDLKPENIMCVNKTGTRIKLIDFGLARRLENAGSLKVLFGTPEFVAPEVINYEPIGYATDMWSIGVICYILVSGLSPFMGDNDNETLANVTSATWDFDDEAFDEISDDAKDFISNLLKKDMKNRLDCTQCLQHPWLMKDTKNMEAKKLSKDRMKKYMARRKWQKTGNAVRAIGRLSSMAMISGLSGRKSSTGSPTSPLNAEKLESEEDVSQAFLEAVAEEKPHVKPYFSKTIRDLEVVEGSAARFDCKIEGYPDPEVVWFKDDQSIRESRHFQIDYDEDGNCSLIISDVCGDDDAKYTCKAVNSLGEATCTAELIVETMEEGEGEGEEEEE

Block 1
Target: CCND3, cyclin fold, Cln2 fusion (human)
Technique: yeast growth competition, sequencing
Medium: yeast
Notes: weak parent motif
Reference: not given
Direction: higher = stronger binding
Endpoint: normalised enrichment score
Parent: PKN2 docking peptide (human); VSAVRKLDFSDTM
VSAVRKLDFSDMM [T12M]: 0.802
VSAVRKLDMSDTM [F9M]: 0.239
VSAVRKLDFYDTM [S10Y]: 0.806
VSAVRKLDSSDTM [F9S]: 0.198
VSAVRKLCFSDTM [D8C]: 0.441
VSAVRKLRFSDTM [D8R]: 0.363
VKAVRKLDFSDTM [S2K]: 0.567
VSAVSKLDFSDTM [R5S]: 0.0596

Block 2
Target: RNA binding protein fox-1 homolog 2, RRM domain, GST-SBP tag (RBFOX2, Homo sapiens, UniProt O43251-10, residues 100-194)
Technique: RNA Bind-n-Seq
Molecule type: RNA
Medium: in vitro
Concentration: 365 nM
Notes: natural RNA segment, single round, ends assumed
Reference: no-protein control
Direction: higher = stronger binding
Endpoint: RBNS enrichment (R)
All sequences stand within: GGGAGUUCUACAGUCCGACGAUC … UGGAAUUCUCGGGUGCCAA
Construct (chain): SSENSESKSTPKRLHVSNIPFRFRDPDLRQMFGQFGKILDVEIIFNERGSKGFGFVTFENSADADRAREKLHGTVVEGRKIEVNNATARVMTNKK
CAUGUCAAACAUGAGAUGUGUGGACUGUGGCACUUGCCUGGGUCACACACGGAGGCAUCCUACCCUUUUCUGGGGAAAGACACUGCCUGGGCUGACCCCGGUGGCGGCCC: 0.254
AAUAGUUUUUAUUUUUGAACAUUCAACUUUGGUUCUUCAAAGUAAUCUUUAAACAUGGGAAUAUGUUUUCAAGACAAUUUAUAGGACAUACUUAUGUAGUUGGUGAGGUC: 0.444
GCAUUUUCAGUAUAUGAGGAGCUGAGAAAGCGCUGCCUGUCUGGUCCUUCAUUUGGCCAGCUAACAUUCUGUCGAGCACCUGCAUUGUGCUGGAUUCAUGCUUCCAGAUG: 0.873
AUGGGAGUGCCAAGGUGGCCAGAUGGUUCCAGGACUACAAUGUCUUUAUUUUUAACUGUUUGCCACUGCUGCCCUCACCCCUGCCCGGCUCUGGAGUACCGUCUGCCCCA: 0.913
AGCCAUCUGGCCUACCCUCUCAGGAAAUGGGUUGUCCUGUAGAGUUCUCUACCCUUUUAAAGGCAAAAGUAUUGGGAUGCAAUACUAUCUUAAUGUCCCUAUCUGUGGUG: 0.31
UCGCACAUCUCUCCUGUCUGUUAGUAGUAAGAAUACAGGGAAAUGUCUUCAGCCCCACGUAGAUGCUGCUUAAGAUGAGCGUUUCAAUUGCAUCAUCACUGACCUGUUAG: 0.651
GGUAUAUUUGCUUCUCGGGAAAGCAAAGAAGCUGCUUUAAGAAAAUUAAAAGGGGACUAAAAAUUUGUUUUGUAUAAAGAGGAUAGCCCUGCGCACGUAGGACUGAAUUC: 2.4
UACUGAAGGAUUGUAGCAUUAAAGCAGAAUCCAAAUCAAAGUAAUUGUAUUUUUAAAAUACAGGAGGGCGGGCGCUAACCAGAUCUUGACUGAUAUGGAAACGUACUUUU: 0.289

Block 3
Target: Interferon regulatory factor 7, full length, phosphomimetic (IRF7, Homo sapiens, UniProt Q92985, residues 1-503, S471D/S472D/S475D/S476D/S477D/S483D/S484D/S487D)
Technique: protein-binding microarray
Molecule type: double-stranded DNA, one strand shown
Medium: in vitro
Concentration: 2200 nM top
Notes: 60-bp whole probe
With: salmon DNA 0.4 mg/ml
Reference: random background probes
Direction: higher = stronger binding
Endpoint: fitted relative affinity
All sequences stand within: GCCTAGCAC … GTCTTGATTCGCTTGACGCTGCTG
Residues (chain): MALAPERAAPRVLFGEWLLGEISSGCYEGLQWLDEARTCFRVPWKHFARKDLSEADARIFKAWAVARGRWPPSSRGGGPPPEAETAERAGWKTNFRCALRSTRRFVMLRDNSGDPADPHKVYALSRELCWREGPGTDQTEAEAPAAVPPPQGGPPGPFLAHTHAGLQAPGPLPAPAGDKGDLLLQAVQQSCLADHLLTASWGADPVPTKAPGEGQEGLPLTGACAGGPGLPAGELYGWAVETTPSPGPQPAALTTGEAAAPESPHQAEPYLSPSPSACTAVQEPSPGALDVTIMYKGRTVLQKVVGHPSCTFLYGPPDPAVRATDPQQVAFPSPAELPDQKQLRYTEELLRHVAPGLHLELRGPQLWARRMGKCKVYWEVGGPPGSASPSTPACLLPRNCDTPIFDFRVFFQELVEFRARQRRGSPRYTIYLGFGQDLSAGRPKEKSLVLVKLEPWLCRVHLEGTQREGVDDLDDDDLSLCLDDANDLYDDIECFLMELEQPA
CACGGTCTCCTACTGCTGACGTGCTAG: 0.708 z-score
TTAGGACTGCTTATCCTCTAGTGCTAG: 0.461 z-score
TTTTTTTTTTTTTTTTTTACGTGCTAG: 1.85 z-score
TCAAGACTCTCTTGTCTGACTGTGCTA: 0.00995 z-score
GACGGTATCCTCTTCCTGACGTGCTAG: 1.32 z-score
GACGGACTGCTTGTCCTGACGTGCTAG: 0.442 z-score
TTATGTATCGGGTTTCGGTTAGTGCTA: 4.82 z-score
GACGATCTCAGTCTCGAGAGGTGCTAG: 0.0213 z-score

Other studies, line by line
C[C@@H](c1cccc(C#N)c1)n1cc(Cl)cc(C(N)=O)c1=N
remaining binding (Myosin light chain kinase, smooth muscle (MYLK, Homo sapiens, UniProt Q15746); cell-free assay, competition with immobilised ligand; 1 µM): 88%

Some of these lines once more (block 1):
VSAVRKLCFSDTM [D8C]: 0.441
VSAVRKLDMSDTM [F9M]: 0.239
VSAVRKLDFSDMM [T12M]: 0.802
VSAVSKLDFSDTM [R5S]: 0.0596
